Results collected from several papers.
Each numbered part is a random draw from the data of one study; scales do not carry over between parts.

Study 1 — technique: RNA Bind-n-Seq; molecule type: RNA; sample: in vitro; tested at: 365 nM; baseline: no-protein control; reading: higher = stronger binding; measurement: RBNS enrichment (R)
Target: RNA binding protein fox-1 homolog 2, RRM domain, GST-SBP tag (RBFOX2, Homo sapiens, UniProt O43251-10, residues 100-194)
Setting: natural RNA segment, single round, ends assumed
Constant ends, left off below: GGGAGUUCUACAGUCCGACGAUC … UGGAAUUCUCGGGUGCCAA
Construct (chain): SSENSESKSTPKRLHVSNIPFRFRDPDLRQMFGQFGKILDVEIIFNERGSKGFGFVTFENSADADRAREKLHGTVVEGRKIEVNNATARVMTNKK
Strand = UGGGGACACAGAUUUUCAUAGUUUCCAUUUUUGGGGGGCUUAAGGAUUUUUUUUUUUUCUGUUUGAAACAGUUUUAUACUUUCUGAUAUAGUACUUGAAAUUCUUACCAG; value = 0.636
Strand = GUAUUCUGAUUCCCCAACCCGCUCCCCUGGGCUCAGAUCUGUCCUGUCCUAGGGCGGAGCCAGGCGGUCCUGAGGGGGAGAUGAAUCCUUAGAGGAGCGCUGUCCCUAUC; value = 0.128
Strand = GAAGUUAAAAAAUAAUGUCUGAUCCUGUUCCUAAGUUCCAAACUAUAGCCAACACUCUGAUGCUGCUCUUUUUCUUGUAGGACCAACCGUCCCAGUUUGCCUGGGACUUU; value = 0.283
Strand = AACAUAGAUAGUGCUAGUAAUAUUACUUAUAACUGUAAUAUAUAGAUUCAGAAAUACAUUUUCAUUAUCCAAAAUCAGCUUCAACAAAUGGUUUCUGGAGACAAAUAAUU; value = 0.556
Strand = GAGGAGGGUCAUGGCUCCAAAUCCGCUUGCCAGUCCCGCCCUCUCUCAGGUUCAGUGGGACUGCCACUGUUAAGGAAGCCACGUUGCUGAUGGGAGGUCUCACCGGCCAC; value = 0.244
Strand = AAAAAGAAGGAAAAAAAAGGCUGCAUUUUAAAAUUAUUUCCUUAGAAUUAAAGAUACUACAUAGGGGCCCUUGGGUAAGCAAAUCCAUUUUUCCCAGAGGCUAUCUUGAU; value = 3.73
Strand = UGAAUGACCCCUGGAGGCCGAGGGGGCAGGCUUCGGGCGUGAACUGAACUCCAGACCCCUCUUUGUGUUGGGCAGUGUCAUCUUGCUUACAAACUGUAAGACACAUUUUU; value = 1.31
Strand = CUUUCAUCCCUCCUUCUAGGGCCUAUGGCAGUUCUCCCAGGAUGUGUGGCGAGAGCCUGGGCCAGCCCACAGCGUUCCUAGUCAGGCAGCCACACCUUGGUCCUCAUCUU; value = 0.804
Strand = CCAGGCCUUAUUGAGACCAGACCCCUAAGCCUCCAACCCCCCAGCAUGUCCCCUAAUGGGGACUGGCUCUCGCUUCACCCCCAUGGGGUUCCUCUAAUAAGGACCAGCCU; value = 2.56
Strand = AUUUUGUGUUCUUUAGUUCUCCUUAAAAGAACUUUUGAAUUAUAAAAAUAAAAUCUUUACCUGUCGAAUUGUUGCUGCAGAUGAUUGUUGUGGAAAAUCUGGAUCAUUGA; value = 1.02
Strand = CUUAUUUUGAUAUAGCAUUUGUUUCCUAAAUGUUUACUAAUCACUUUAUGCCAAAUGUCUUGCAGAUGUUAUUUUUAAACUUAACUGAAUUUUUACAAAUAUAAAAAGGA; value = 1.42
Strand = CUUGUCAGACCAUCAAUCUCUUGGGGUGAUUAAUCAAAUUACCCACCCAAGGCUUCUAGAAGGAGCUUCCUGCAAUGGAAGGAAGGAGAAGCUCUGAAGCCCAUGUAUGG; value = 0.566

Study 2 — technique: protein-binding microarray; molecule type: double-stranded DNA, one strand shown; sample: in vitro; tested at: 0.8 µM; setting: whole 60-bp probe, no competitor; reading: higher = stronger binding; measurement: fluorescence intensity; constant ends, left off below: … GTCTTGATTCGCTTGACGCTGCTG
Target: Centromere-binding protein 1, full length, N-terminal tag (CBF1, Saccharomyces cerevisiae, UniProt P17106, residues 1-351)
Chain of UniProt P17106 (whole entry, looked up): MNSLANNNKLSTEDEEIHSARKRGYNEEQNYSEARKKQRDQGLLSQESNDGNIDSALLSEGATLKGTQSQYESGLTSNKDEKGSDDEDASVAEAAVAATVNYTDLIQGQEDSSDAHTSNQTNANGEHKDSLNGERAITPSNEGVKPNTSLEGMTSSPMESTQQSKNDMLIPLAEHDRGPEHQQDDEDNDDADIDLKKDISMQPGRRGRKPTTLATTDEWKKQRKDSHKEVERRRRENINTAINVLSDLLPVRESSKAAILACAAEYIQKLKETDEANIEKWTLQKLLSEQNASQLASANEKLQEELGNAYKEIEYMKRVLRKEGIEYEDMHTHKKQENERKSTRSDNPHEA
Strand = CTATGTTATTGTCCTCACGTGAATTGAATTGAATTC; value = 6290 a.u.
Strand = GAACTATTCACGATGACCGTGACTCAGAAGGAATAG; value = 965 a.u.
Strand = TGTACGAAGCTATAGCACGGGCATATAGTAGTTAGG; value = 551 a.u.
Strand = GAATCCAAATCTGATCACGTTAGGAAATATACATAG; value = 1640 a.u.
Strand = CTATCACTTTTTTTACATGTGCTTATATTTAACTTC; value = 1000 a.u.
Strand = CTAAAACTTTGAGCTCTGATGACTTTGCAATGATTC; value = 498 a.u.
Strand = GAACAGTGCAGTCGCAAGCACGTGCATGCGATTTAG; value = 15400 a.u.
Strand = CTATTTTGATATCCACACGTTATTGAGCTCATTTTC; value = 566 a.u.
Strand = GAACAACAAACTTCCCACGTTACTCCTCGAGATTAG; value = 587 a.u.
Strand = CTACTTCTATATTGTCACCTTCCATTTATGAAGTTC; value = 632 a.u.
Strand = CCTAACTACTATAATCACGAAACATAGCTTCGTACA; value = 542 a.u.
Strand = GAAAGCCGAGCATCAAGCATGACCACTTCCTGGTAG; value = 595 a.u.
Strand = TGTACGAAGCTATAATTCACCATTATAGTAGTTAGG; value = 511 a.u.
Strand = CTAATGGAAAACCGTCATCAGATTTAATGGGGCTTC; value = 521 a.u.
Strand = GAACAATATTCGGGTGACGCCGCCCCTGTTTGATAG; value = 492 a.u.
Strand = CTACCTTCCTTTTACCTCGTGAAAGGACTATATTTC; value = 590 a.u.
Strand = GAATACGTATTAACTCACCAGACTACAATAGTATAG; value = 548 a.u.

Study 3 — technique: RNA Bind-n-Seq; molecule type: RNA; sample: in vitro; tested at: not given; setting: RNA with constant flanks, ends assumed; baseline: input RNA pool; reading: higher = stronger binding; measurement: bound/input enrichment
Target: RING finger protein unkempt homolog, zinc fingers 1-6, GST-SBP tag (UNK, Homo sapiens, UniProt Q9C0B0, residues 30-357)
Chain of UniProt Q9C0B0 (30-357, looked up): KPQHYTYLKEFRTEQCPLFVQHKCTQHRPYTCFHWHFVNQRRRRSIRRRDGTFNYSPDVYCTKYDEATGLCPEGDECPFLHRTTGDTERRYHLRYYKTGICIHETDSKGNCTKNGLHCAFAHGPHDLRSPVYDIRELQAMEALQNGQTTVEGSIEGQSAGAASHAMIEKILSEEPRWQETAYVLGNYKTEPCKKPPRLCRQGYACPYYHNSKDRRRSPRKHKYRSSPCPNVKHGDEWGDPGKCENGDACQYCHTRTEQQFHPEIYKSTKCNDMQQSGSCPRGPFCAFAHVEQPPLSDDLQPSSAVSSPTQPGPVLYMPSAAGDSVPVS
Constant ends, left off below: GGGAGUUCUACAGUCCGACGAUC … CAACAGAGGAUUGAGCAUCA
Strand = CCAGGAAAAGUGUCUGGCAGCCCUGAGCAAGCCGUGGAGGAAAACCUUAGUUCCUAUUCCUCCGACAGAAGAGUGACACCCGCCUCUGAGACCCUAGAAGACCCUUGCAGGACAGAGUCC; value = 0.295 ratio
Strand = CUCUAGAUUCUGUAUCUAGAUCACCAUGGCGACUGGACAGAAGUUGAUGAGAGCUGUCCGAGUUUUUGAAUUUGGUGGGCCAGAAGUCCUGAAAUUGCGAUCAGAUAUUGCAGUACCGAU; value = 0.163 ratio
Strand = ACCAUUGGAUUUAAUGUAGAGACGGUGACGUACAAAAACCUUAAAUUCCAAGUCUGGGAUUCCGGAGGACAGACAAGUAUCAGGCCAUACUGGAGAUGUUACUAUUCAAACACAGAUGCA; value = 0.219 ratio
Strand = GAUUGUCUUCAGUCCUGGGAACCUUGGCCUCGACAGCCCUAUUUAUGCAUACAAGUAAUAUACCGAUGAAUGUCUCAAGUAAAUAUGGCUUAUGGAUGGUAGUGGAUAAUUUGAUGAGAA; value = 0.402 ratio
Strand = AUCAGAAAUCUUUUUAGAGAAGCAAAAGCAAAUGCUCCUUGUGUUAUAUUCAUCGAUGAAUCCGAUUCUGUUGGUGGAAAGAGAAUUGAAUCUCCAAUGCACCCGUAUUCAAGGCAGACG; value = 0.514 ratio
Strand = AAGAACUUGGCCCUCAUGACACAUAUAACAACUGACAUGGAAGAUGGACCCAUUAUUAAGUCCGCUGGGAACUUGGGAGUAGAAGAUGUGAAUUUAUUAUGUGGAGAAGAGCUCUCUUAC; value = 0.299 ratio
Strand = UUUGAUGUCAUGGUGAUGCCUAAUCUCUAUGGUAACAUUGUCAACAACGUCUGUGCAGGGCCCGUUGGAGGCCCAGGCCUUGUGGCUGGGGCCAACUAUGGCCAUGUGUAUGCAGUAUUC; value = 0.166 ratio
Strand = CGGUAUCCAGACAUCCGCAUUGAAGGCGAGAAUUAUCUCCCUCAACCAAUUUAUAGACACACCGCAUCUUUCCUGUCAGUCUUCAAACUAGUAUUAAUAGGCUUAAUAAUUGUUGGCAAA; value = 37 ratio
Strand = CAAGACCCAACCAUUUCUUCCACCUGCUUGAUUGUGCCAGUGUUUGCUCAGGCCUCUUUCUCCGUGUUGCUUUCAAAUCCUUCUCUUUCCUGGGUUGGGAAGGCCAGGCAGGGACAGAGC; value = 0.378 ratio
Strand = AAAGGAAGUCUAAACAAAGCAAUAGAAGAUUUUGAGCUCGCAUUAGAAAACUGCCCAACUCACCGGAAUGCAAGGAAAUAUCUCUGCCAGACACUUGUAGAAAGGGGAGGGCAGUUAGAA; value = 2.19 ratio
Strand = UAUGAUGCCCUGGUUGCCAUGACUAUCUUUUUCAACACUCAAAAUGAGCCAGUACGGCAAUCCGCUAUCUUCUGUCCACACGAGGCACUUCGAAUGACAAUCUGUGGCAUCCUGGAACGA; value = 0.148 ratio

Study 4 — technique: universal PBM; molecule type: double-stranded DNA, one strand shown; sample: in vitro; tested at: 600 nM; reading: higher = stronger binding; measurement: E-score
Target: Sal-like protein 4, full length isoform A (SALL4, Homo sapiens, UniProt Q9UJQ4, residues 1-1053)
Chain of UniProt Q9UJQ4 (whole entry, looked up): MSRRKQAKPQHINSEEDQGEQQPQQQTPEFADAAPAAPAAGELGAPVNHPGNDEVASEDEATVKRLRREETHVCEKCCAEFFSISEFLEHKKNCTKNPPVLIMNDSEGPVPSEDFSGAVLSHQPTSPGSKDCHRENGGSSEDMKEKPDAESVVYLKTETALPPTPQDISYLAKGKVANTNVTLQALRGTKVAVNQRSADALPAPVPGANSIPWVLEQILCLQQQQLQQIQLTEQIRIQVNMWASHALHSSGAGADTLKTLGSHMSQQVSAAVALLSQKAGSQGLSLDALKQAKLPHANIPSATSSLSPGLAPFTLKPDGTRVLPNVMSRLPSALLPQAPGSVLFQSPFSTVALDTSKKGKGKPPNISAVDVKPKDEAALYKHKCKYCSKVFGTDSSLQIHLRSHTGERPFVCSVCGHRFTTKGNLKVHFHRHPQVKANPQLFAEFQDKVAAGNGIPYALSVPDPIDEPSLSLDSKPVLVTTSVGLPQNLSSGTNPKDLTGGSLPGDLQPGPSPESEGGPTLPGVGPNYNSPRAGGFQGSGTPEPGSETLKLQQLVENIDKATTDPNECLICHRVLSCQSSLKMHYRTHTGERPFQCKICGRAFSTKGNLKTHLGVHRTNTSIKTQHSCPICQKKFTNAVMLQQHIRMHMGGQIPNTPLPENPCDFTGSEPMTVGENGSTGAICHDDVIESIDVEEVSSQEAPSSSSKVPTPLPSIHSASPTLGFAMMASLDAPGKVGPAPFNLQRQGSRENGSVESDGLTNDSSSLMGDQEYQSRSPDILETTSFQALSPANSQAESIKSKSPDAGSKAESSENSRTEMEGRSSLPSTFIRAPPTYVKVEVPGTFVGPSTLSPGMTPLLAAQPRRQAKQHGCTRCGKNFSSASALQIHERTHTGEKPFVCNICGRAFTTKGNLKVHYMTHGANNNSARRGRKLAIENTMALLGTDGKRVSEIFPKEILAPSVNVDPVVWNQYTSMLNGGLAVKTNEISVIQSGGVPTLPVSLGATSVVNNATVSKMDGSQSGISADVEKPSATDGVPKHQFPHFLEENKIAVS
Setting: 8-mer, flanks averaged, mean of replicates
Strand = CAGCGTAG; value = -0.122
Strand = AATTTTAA; value = 0.375
Strand = AAACTACC; value = 0.145
Strand = GCCATCTA; value = -0.028
Strand = GGGGTCTA; value = -0.0856
Strand = CGTCCGAA; value = -0.196
Strand = AGGCATCA; value = -0.114
Strand = CTGCCGAC; value = -0.252
Strand = CGTGCGAA; value = -0.0759
Strand = TAGGCGGA; value = 0.078
Strand = ACTTAGAA; value = -0.0124
Strand = CAAATTCC; value = 0.224
Strand = GGGTACTA; value = -0.0324
Strand = GTCAGCAC; value = -0.119
Strand = AGCATAAC; value = 0.204
Strand = ATTGAAAA; value = 0.321
Strand = CACCTGGC; value = -0.273
Strand = AGTTGGAT; value = 0.146
Strand = GAACATAC; value = 0.143
Strand = ATGTCTCA; value = 0.169
Strand = AGTGTAAG; value = 0.14
Strand = GAGTCATC; value = -0.153
Strand = GACTTACA; value = 0.144
Strand = ACCCGTAA; value = -0.134
Strand = CGCGGATA; value = 0.034

Some of these lines once more (study 1):
Strand = UGGGGACACAGAUUUUCAUAGUUUCCAUUUUUGGGGGGCUUAAGGAUUUUUUUUUUUUCUGUUUGAAACAGUUUUAUACUUUCUGAUAUAGUACUUGAAAUUCUUACCAG; value = 0.636
Strand = AUUUUGUGUUCUUUAGUUCUCCUUAAAAGAACUUUUGAAUUAUAAAAAUAAAAUCUUUACCUGUCGAAUUGUUGCUGCAGAUGAUUGUUGUGGAAAAUCUGGAUCAUUGA; value = 1.02
Strand = AAAAAGAAGGAAAAAAAAGGCUGCAUUUUAAAAUUAUUUCCUUAGAAUUAAAGAUACUACAUAGGGGCCCUUGGGUAAGCAAAUCCAUUUUUCCCAGAGGCUAUCUUGAU; value = 3.73
Strand = CUUGUCAGACCAUCAAUCUCUUGGGGUGAUUAAUCAAAUUACCCACCCAAGGCUUCUAGAAGGAGCUUCCUGCAAUGGAAGGAAGGAGAAGCUCUGAAGCCCAUGUAUGG; value = 0.566
Strand = UGAAUGACCCCUGGAGGCCGAGGGGGCAGGCUUCGGGCGUGAACUGAACUCCAGACCCCUCUUUGUGUUGGGCAGUGUCAUCUUGCUUACAAACUGUAAGACACAUUUUU; value = 1.31
Strand = GAGGAGGGUCAUGGCUCCAAAUCCGCUUGCCAGUCCCGCCCUCUCUCAGGUUCAGUGGGACUGCCACUGUUAAGGAAGCCACGUUGCUGAUGGGAGGUCUCACCGGCCAC; value = 0.244
Strand = AACAUAGAUAGUGCUAGUAAUAUUACUUAUAACUGUAAUAUAUAGAUUCAGAAAUACAUUUUCAUUAUCCAAAAUCAGCUUCAACAAAUGGUUUCUGGAGACAAAUAAUU; value = 0.556
Strand = CUUUCAUCCCUCCUUCUAGGGCCUAUGGCAGUUCUCCCAGGAUGUGUGGCGAGAGCCUGGGCCAGCCCACAGCGUUCCUAGUCAGGCAGCCACACCUUGGUCCUCAUCUU; value = 0.804
Strand = GUAUUCUGAUUCCCCAACCCGCUCCCCUGGGCUCAGAUCUGUCCUGUCCUAGGGCGGAGCCAGGCGGUCCUGAGGGGGAGAUGAAUCCUUAGAGGAGCGCUGUCCCUAUC; value = 0.128
Strand = CCAGGCCUUAUUGAGACCAGACCCCUAAGCCUCCAACCCCCCAGCAUGUCCCCUAAUGGGGACUGGCUCUCGCUUCACCCCCAUGGGGUUCCUCUAAUAAGGACCAGCCU; value = 2.56
Strand = GAAGUUAAAAAAUAAUGUCUGAUCCUGUUCCUAAGUUCCAAACUAUAGCCAACACUCUGAUGCUGCUCUUUUUCUUGUAGGACCAACCGUCCCAGUUUGCCUGGGACUUU; value = 0.283
